Measurements gathered from unrelated publications.
± gives the spread as reported.

| SMILES | tested on | assay | test system | setting | how to read | quantity | value |
| --- | --- | --- | --- | --- | --- | --- | --- |
| CCCCCCCc1c(C)[nH]c2cc(OC)ccc2c1=O | Plasmodium yoelii | oxygen consumption | 17XL |  |  | IC50 | 0.011 µM |
| O=C1NC(=S)S/C1=C\c1c[nH]c2ccc([N+](=O)[O-])cc12 | Leishmania donovani | parasite growth, resazurin | THP-1 | 24 h, intracellular, amastigote |  | IC50 | > 10 µM |
| O=C(Nc1ccc2[nH]c3c(C4=C[C@@]5(O)CC/C=C\CCCCN6CC[C@@H]4[C@]4(C[C@@H]7/C=C\CCCCN7[C@H]45)C6)nccc3c2c1)C1CCCCC1 | Mycobacterium intracellulare | microbial growth |  |  |  | IC50 | 1.49 µM |
| CC(C)(C)C1=CC(=NNC(=O)c2ccc(O)cc2)C=C(C(C)(C)C)C1=O | Toxoplasma gondii | parasite growth, fluorescence |  | 5 days, intracellular |  | IC50 | 3.8 µM |
| C[C@@H]1N[C@H](CCCCCCCCCCc2cc(CCCCCCCCCC[C@@H]3CC[C@H](O)[C@@H](C)N3)c3[n+](c2)CCC3)CC[C@H]1O | Leishmania donovani | parasite growth, resazurin |  | 72 h, amastigote |  | IC50 | 2.08 µg/mL |
| COc1c(OC)c(O)c2c(=O)cc(-c3ccc(O)cc3)oc2c1OC | human immunodeficiency virus 1 | viral transcription, luciferase reporter | MT2 transfected with pNL4.3-Luc | 48 h |  | IC50 | 18 µM |
| CCN(CC)CCCC(C)Nc1ccnc2cc(Cl)ccc12 (stereo not shown) | Plasmodium vivax | schizont maturation | field isolates | 20% human serum |  | IC50 | 0.064 µM |
| Cc1ccc(Nc2nc(-c3cc(C(=O)Nc4cccc(C)c4)no3)cs2)cc1 | Mycobacterium avium |  | 11 | 96 h |  | IC50 | > 100 µM |
| COc1ccc(Oc2ccc(OCCSC#N)cc2)cc1 | Toxoplasma gondii |  | hTERT fibroblasts, RFP-expressing tachyzoites |  |  | IC50 | 3.8 µM |
| Cc1ccc(Nc2nc(-c3cc(C(=O)Nc4cccc(O)c4)no3)cs2)cc1 | Mycobacterium avium |  | 11 | 96 h |  | IC50 | > 100 µM |
| CO[C@@H]1C(=O)CC[C@]2(CO2)[C@@]1(O)[C@@]1(C)O[C@@H]1CC=C(C)C | Plasmodium yoelii | liver-stage schizont size | HepG2-A16-CD81EGFP |  |  | IC50 | 0.000736 µM |
| Cc1ccc(Nc2nc(-c3cc(C(=O)Nc4cccc(F)c4)no3)cs2)cc1 | Mycobacterium avium |  | 11 | 96 h |  | IC50 | > 100 µM |
| C=C1C(=O)O[C@@H]2[C@H]1CC[C@H](C)[C@@H]1CCC(=O)[C@@]21C | human immunodeficiency virus 1 | viral transcription, luciferase reporter | MT2 transfected with pNL4.3-Luc | 48 h |  | IC50 | 0.13 µM |
| CCN(CC)CCCC(C)Nc1ccnc2cc(Cl)ccc12 (stereo not shown) | Plasmodium yoelii | oxygen consumption | 17XL, infected red blood cells |  |  | IC50 | > 12 µM |
| Cn1c(-c2ccc(C(N)=O)cc2F)nnc1C(C)(C)Oc1c(F)cc(Cl)cc1F |  |  | healthy young Japanese subjects, plasma | oral, 20 mg once daily, day 18, 14 days dosing |  | AUC(0-tau) median | 2470 ng·h/mL |
| O=C(Nc1ccccn1)c1cc(-c2csc(Nc3ccccc3)n2)on1 | Mycobacterium avium |  | 11 | 96 h |  | IC50 | > 100 µM |
| CC[C@H](CO)Nc1nc(NCc2ccccc2O)c2ncn(C(C)C)c2n1 | Human adenovirus E serotype 4 | viral replication, plaque reduction | A549, RI-6 | 5 days |  | IC50 | 2.4 ± 1.3 µM |
| CC(=O)Nc1ccc(O)cc1 |  | cytochrome c release, ELISA | BALB/cByJ female mouse liver mitochondria | 30 min | reference: alamethicin maximal release | EC20 | > 400 µM |
| Cc1ccc(Nc2nc(-c3cc(C(=O)Nc4ccncc4)no3)cs2)cc1 | Mycobacterium avium |  | 11 | 96 h |  | IC50 | > 100 µM |
| CCOC(=O)c1ccc(O)cc1 |  | cytochrome c release, ELISA | BALB/cByJ female mouse liver mitochondria | 30 min | reference: alamethicin maximal release | EC20 | > 400 µM |
| Cc1ccc(Nc2nc(-c3cc(C(=O)Nc4ccccn4)no3)cs2)cc1O | Mycobacterium avium |  | 11 | 96 h |  | IC50 | > 100 µM |
| Cc1ccc(Cn2cc(/C=N/N3C(=O)CSC3=S)c3cc([N+](=O)[O-])ccc32)cc1 | Leishmania donovani | parasite growth, resazurin | THP-1 | 24 h, intracellular, amastigote |  | IC50 | > 10 µM |
